{"data": "Results of several laboratories", "note": "Protocols differ between the studies behind these lines. ± gives the spread as reported.", "chain of UniProt P06221 (whole entry, looked up)": "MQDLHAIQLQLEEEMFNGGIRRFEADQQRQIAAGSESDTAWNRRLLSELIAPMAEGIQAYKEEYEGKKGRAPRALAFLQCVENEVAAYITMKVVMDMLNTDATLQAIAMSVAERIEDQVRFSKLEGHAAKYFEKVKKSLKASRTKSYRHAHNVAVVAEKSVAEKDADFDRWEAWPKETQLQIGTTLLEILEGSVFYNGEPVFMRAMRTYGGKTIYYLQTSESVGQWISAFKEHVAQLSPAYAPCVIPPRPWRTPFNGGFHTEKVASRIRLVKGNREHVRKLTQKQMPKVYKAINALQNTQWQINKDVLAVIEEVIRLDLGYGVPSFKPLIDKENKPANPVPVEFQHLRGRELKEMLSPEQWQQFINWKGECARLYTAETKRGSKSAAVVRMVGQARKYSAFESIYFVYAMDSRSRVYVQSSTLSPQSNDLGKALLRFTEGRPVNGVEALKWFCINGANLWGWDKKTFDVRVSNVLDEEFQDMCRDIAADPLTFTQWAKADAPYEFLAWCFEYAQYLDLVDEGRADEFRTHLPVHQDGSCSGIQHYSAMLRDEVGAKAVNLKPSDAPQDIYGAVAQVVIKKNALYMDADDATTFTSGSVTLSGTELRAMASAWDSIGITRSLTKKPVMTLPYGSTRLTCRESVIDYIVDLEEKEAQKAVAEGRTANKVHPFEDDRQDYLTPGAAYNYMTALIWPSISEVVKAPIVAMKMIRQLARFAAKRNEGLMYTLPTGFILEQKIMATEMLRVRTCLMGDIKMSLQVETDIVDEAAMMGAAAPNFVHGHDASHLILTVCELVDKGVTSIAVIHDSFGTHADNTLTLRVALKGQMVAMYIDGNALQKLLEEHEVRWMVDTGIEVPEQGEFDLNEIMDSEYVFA", "chain of UniProt P02754 (whole entry, unmodified, looked up)": "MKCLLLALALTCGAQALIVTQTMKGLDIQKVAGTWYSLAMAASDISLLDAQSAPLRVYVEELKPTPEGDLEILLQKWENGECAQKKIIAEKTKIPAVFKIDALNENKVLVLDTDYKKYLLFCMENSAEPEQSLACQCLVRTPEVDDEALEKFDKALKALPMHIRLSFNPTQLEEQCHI", "chain of UniProt P10275 (whole entry, looked up)": "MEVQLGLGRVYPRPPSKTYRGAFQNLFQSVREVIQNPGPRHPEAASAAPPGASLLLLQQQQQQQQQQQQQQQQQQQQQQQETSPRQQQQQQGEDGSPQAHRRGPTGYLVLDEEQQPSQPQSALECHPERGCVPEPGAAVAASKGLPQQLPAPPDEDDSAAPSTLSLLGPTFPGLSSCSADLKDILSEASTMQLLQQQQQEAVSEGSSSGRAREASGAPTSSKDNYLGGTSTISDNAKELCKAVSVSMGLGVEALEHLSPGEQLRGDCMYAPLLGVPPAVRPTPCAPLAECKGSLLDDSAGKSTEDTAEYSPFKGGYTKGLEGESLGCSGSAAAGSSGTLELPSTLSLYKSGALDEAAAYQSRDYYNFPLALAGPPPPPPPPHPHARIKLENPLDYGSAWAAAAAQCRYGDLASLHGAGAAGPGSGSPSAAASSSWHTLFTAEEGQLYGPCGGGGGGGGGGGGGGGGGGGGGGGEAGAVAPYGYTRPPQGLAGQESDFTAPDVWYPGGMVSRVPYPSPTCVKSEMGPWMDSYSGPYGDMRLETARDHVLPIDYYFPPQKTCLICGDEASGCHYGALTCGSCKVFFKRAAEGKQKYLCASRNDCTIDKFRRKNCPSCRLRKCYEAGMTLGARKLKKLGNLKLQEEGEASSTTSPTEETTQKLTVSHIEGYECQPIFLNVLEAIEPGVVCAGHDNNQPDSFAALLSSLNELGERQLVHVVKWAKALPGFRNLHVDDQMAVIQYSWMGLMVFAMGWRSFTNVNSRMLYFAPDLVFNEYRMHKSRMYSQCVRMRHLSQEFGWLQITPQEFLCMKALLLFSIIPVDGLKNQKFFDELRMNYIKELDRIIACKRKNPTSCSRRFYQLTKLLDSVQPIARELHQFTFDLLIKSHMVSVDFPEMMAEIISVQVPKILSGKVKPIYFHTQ", "chain of UniProt Q03405 (whole entry, looked up)": "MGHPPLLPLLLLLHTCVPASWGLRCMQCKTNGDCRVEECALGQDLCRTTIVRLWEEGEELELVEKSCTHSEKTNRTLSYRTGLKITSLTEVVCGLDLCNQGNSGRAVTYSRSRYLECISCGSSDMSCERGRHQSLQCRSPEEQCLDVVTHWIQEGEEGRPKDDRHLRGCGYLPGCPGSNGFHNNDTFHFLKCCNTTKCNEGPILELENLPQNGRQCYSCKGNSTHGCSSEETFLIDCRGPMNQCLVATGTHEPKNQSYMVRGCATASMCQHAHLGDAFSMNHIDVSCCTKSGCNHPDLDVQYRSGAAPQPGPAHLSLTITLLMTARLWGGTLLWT", "chain of UniProt P17931 (whole entry, looked up)": "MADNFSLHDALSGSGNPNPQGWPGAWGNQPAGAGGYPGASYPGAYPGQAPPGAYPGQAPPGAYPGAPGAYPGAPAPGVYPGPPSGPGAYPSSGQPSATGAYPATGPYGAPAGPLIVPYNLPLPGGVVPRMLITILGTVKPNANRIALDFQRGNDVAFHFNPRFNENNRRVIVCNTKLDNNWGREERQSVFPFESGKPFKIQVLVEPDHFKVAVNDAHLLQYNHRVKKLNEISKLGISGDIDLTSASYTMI", "chain of UniProt P16257 (whole entry, looked up)": "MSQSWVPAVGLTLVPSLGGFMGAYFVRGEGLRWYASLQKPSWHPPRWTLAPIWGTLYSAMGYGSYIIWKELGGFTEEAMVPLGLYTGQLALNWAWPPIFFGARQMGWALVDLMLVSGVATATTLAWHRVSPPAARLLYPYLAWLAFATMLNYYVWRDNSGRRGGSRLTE", "chain of UniProt Q7L0J3 (whole entry, looked up)": "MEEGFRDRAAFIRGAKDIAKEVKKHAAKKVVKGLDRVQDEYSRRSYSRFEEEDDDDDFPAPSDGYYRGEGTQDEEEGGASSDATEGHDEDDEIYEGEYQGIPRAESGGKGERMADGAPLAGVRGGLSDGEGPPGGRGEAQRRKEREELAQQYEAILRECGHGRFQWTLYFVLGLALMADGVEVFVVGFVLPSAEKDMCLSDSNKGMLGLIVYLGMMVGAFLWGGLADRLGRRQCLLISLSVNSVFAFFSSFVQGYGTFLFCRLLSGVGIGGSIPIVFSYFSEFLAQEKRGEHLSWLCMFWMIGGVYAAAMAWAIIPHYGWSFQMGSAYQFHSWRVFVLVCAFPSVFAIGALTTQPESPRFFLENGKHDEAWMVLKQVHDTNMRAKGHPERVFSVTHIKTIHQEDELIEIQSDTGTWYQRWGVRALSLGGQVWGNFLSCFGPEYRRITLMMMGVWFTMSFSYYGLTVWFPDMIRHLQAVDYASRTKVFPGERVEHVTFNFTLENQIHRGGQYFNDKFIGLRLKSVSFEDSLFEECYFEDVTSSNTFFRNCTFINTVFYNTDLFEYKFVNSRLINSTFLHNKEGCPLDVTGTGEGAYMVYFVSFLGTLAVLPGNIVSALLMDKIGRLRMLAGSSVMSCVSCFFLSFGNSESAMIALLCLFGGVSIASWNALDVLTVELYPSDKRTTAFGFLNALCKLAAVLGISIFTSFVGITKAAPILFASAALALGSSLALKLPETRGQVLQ", "chain of UniProt P22309 (whole entry, looked up)": "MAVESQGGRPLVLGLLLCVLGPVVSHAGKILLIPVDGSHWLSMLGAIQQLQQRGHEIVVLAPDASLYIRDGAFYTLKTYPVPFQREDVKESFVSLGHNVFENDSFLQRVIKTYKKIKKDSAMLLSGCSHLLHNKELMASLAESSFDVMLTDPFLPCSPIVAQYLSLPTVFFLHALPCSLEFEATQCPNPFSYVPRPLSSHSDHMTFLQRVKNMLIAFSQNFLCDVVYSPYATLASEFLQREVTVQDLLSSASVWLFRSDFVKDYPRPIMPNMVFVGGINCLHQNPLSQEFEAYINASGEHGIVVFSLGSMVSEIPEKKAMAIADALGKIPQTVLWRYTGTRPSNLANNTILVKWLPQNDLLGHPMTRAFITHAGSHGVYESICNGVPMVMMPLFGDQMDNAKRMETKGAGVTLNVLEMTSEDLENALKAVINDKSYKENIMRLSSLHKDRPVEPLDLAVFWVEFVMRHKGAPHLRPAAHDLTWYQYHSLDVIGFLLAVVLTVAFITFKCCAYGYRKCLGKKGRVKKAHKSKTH", "chain of UniProt Q8BH82 (whole entry, looked up)": "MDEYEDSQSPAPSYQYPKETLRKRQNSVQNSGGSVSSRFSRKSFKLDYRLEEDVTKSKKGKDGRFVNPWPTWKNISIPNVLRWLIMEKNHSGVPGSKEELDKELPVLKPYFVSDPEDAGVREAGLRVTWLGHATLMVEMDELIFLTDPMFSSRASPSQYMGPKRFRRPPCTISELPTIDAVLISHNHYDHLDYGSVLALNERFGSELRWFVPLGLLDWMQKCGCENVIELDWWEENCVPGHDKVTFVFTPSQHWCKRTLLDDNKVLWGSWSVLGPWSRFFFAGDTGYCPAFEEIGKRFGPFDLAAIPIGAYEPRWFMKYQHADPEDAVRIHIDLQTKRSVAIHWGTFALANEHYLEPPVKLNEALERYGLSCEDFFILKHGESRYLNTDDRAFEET", "chain of UniProt P21554 (whole entry, looked up)": "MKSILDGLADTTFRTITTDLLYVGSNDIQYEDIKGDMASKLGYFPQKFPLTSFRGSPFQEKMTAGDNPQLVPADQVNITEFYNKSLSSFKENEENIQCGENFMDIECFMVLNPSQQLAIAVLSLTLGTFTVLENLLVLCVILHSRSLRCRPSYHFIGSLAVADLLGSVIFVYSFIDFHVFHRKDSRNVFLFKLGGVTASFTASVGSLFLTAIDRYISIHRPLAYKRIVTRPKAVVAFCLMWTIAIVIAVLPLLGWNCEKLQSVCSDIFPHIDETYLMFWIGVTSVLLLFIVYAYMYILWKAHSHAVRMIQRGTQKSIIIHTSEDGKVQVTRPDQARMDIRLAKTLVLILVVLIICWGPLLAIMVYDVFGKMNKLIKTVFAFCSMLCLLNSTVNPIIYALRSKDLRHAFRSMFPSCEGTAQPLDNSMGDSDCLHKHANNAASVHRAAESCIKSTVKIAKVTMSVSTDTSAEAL"}
{"Compound": "Oc1c(C(Nc2nc3ccccc3s2)c2ccccc2OCc2ccccc2)ccc2cccnc12 (stereo not drawn)", "target": "Genome polyprotein, NS2B-NS3 protease (GP1, West Nile virus, UniProt Q9Q6P4)", "assay": "enzyme activity, inhibitor", "setting": "0.1% CHAPS, added: tetrapeptide substrate", "measurement": "Hill slope", "result": "1.17 ± 0.08"}
{"Compound": "NCCCC[C@H](NC(=O)[C@H](C/C=C/C[C@H](NC(=O)[C@@H]1CCCN1)C(=O)N[C@@H](CCCCN)C(=O)NCCCN)NC(=O)[C@@H]1CCCN1)C(=O)NCCCN", "target": "(CUG)10 RNA", "assay": "SPR", "measurement": "residence time", "result": "15 s"}
{"Compound": "COc1cccc(C(=O)N[C@H]2[C@@H](O)[C@@H](CO)O[C@@H](S[C@@H]3O[C@H](CO)[C@H](O)[C@H](NC(=O)c4cccc(OC)c4)[C@H]3OS(=O)(=O)O)[C@@H]2O)c1", "target": "Galectin-3 (LGALS3, Homo sapiens, UniProt P17931)", "assay": "ITC", "setting": "concentration not given, Kd fixed from FP", "measurement": "binding stoichiometry", "result": 1.01}
{"Compound": "Cc1cc(C)c2sc(NC(=O)C3CCN(S(=O)(=O)c4ccc(F)cc4)CC3)nc2c1", "target": "Napepld (Mus musculus, UniProt Q8BH82)", "assay": "enzyme activity, activator", "system": "RAW264.7", "setting": "added: PED-A1 substrate", "how to read": "reference: vehicle", "measurement": "Emax", "result": "1.6 fold"}
{"Compound": "CC(Oc1cc(-c2ccccc2)nc2cccnc12)C(=O)N(C)c1ccccc1 (stereo not drawn)", "target": "Tspo (Rattus norvegicus, UniProt P16257)", "assay": "binding", "system": "rat brain homogenate", "setting": "pKi minus clogD", "measurement": "lipophilic efficiency", "result": "4.6 ± 0.1"}
{"Compound": "O=C(O)[C@H]1O[C@@H](O[C@H]2C=Cc3c(cc4ccc5cccc6c7ccccc7c3c4c56)[C@@H]2O)[C@H](O)[C@@H](O)[C@@H]1O", "target": "UGT1A1 (Homo sapiens, UniProt P22309)", "assay": "glucuronidation, substrate", "system": "UGT-expressing HEK293 homogenate", "setting": "normalized to UGT expression", "measurement": "kcat/Km", "result": "51.7 ± 10 M⁻¹ s⁻¹"}
{"Compound": "CC(C)C[C@H](NC(=O)[C@H](Cc1ccc(O)cc1)NC(=O)[C@@H](CCCNC(=N)N)NC(=O)[C@@H](CO)NC(=O)[C@H](Cc1ccccc1)NC(=O)[C@H](CC1CCCCC1)NC(=O)[C@H](CC(=O)O)NC(=O)CN1CCN(CC(=O)O)CCN(CC(=O)O)CCN(CC(=O)O)CC1)C(=O)N[C@@H](Cc1c[nH]c2ccccc12)C(=O)N[C@@H](CO)C(N)=O", "target": "Urokinase plasminogen activator surface receptor (Homo sapiens, UniProt Q03405)", "assay": "binding, SPR", "measurement": "koff", "result": "0.0043 s⁻¹"}
{"Compound": "[3H]C([3H])([3H])c1cnccc1CN1C[C@@H](c2cc(F)c(F)c(F)c2)CC1=O", "target": "SV2A (Homo sapiens, UniProt Q7L0J3)", "assay": "radioligand binding, autoradiography", "system": "human, post-mortem insula", "setting": "5 nM", "measurement": "specific binding", "result": "240 fmol/mg"}
{"Compound": "C[C@@]1(c2nc(-c3ccc(F)c4cn[nH]c34)no2)CCCN(C(=O)c2ccc(F)nc2)C1", "target": "CNR1 (Homo sapiens, UniProt P21554)", "system": "CNR1-transfected cells", "setting": "up to 30 µM, added: forskolin", "measurement": "forskolin-stimulated cAMP production", "result": "no effect"}
{"Compound": "CCC(=O)Oc1ccc(Cl)cc1C(=O)Nc1ccc([N+](=O)[O-])cc1Cl", "target": "Androgen receptor, AR-V7 isoform (AR, Homo sapiens, UniProt P10275)", "assay": "Western blot", "system": "CWR22Rv1", "setting": "1 µM, 16 h", "measurement": "AR variant protein level", "result": "inhibited"}
{"Compound": "O=C(O)C1OC(OC2C(C(=O)O)OC(OC3C(C(=O)O)OC(OC4C(C(=O)O)OC(O)C(O)C4O)C(O)C3O)C(O)C2O)C(O)C(O)C1O (stereo not drawn)", "target": "Beta-lactoglobulin (LGB, Bos taurus, UniProt P02754, A134V/G80D)", "assay": "isothermal titration calorimetry", "setting": "concentration not given, pH 4.00, 37 °C, 50 mM KH2PO4", "how to read": "ligand per protein", "measurement": "binding stoichiometry", "result": 4}
{"Compound": "COc1ccc(CNc2nc3c(c(=O)[nH]2)[n+](C)cn3C2OC(COP(=O)(O)OP(=O)([O-])OP(=O)(O)OCC3OC(n4cnc5c(=O)[nH]c(N)nc54)C(O)C3O)C(O)C2O)cc1 (stereo not drawn)", "target": "DNA-directed RNA polymerase (Enterobacteria phage SP6, UniProt P06221)", "assay": "in vitro transcription, densitometry", "system": "short RNA", "measurement": "capping efficiency", "result": "77.3%"}
{"note": "Repeated from above:"}
{"Compound": "O=C(O)[C@H]1O[C@@H](O[C@H]2C=Cc3c(cc4ccc5cccc6c7ccccc7c3c4c56)[C@@H]2O)[C@H](O)[C@@H](O)[C@@H]1O", "target": "UGT1A1 (Homo sapiens, UniProt P22309)", "assay": "glucuronidation, substrate", "system": "UGT-expressing HEK293 homogenate", "setting": "normalized to UGT expression", "measurement": "kcat/Km", "result": "51.7 ± 10 M⁻¹ s⁻¹"}
